Assay results gathered from unrelated publications.
Protocols differ between the studies behind these lines. Values joined by “and” are separate records of one study, mostly repeats; a detail may differ. ± gives the spread as reported.
Aryl hydrocarbon receptor: Aryl hydrocarbon receptor (Danio rerio, UniProt Q9YGV3)
NF-kappa-B inhibitor alpha: NF-kappa-B inhibitor alpha (Homo sapiens, UniProt P25963)
Sequence of UniProt P25963 (whole entry, looked up): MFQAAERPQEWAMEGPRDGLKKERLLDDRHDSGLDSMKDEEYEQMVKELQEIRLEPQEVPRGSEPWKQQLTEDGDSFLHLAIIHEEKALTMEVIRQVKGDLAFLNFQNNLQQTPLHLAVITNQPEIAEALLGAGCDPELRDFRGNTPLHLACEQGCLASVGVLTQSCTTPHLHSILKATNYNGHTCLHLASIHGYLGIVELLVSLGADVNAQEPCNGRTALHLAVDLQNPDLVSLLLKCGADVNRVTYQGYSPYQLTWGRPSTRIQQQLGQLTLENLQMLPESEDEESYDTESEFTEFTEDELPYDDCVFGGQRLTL
SET Y135C: Protein SET (SET, Homo sapiens, UniProt Q01105, Y135C)
Sequence of UniProt P05164 (whole entry, looked up): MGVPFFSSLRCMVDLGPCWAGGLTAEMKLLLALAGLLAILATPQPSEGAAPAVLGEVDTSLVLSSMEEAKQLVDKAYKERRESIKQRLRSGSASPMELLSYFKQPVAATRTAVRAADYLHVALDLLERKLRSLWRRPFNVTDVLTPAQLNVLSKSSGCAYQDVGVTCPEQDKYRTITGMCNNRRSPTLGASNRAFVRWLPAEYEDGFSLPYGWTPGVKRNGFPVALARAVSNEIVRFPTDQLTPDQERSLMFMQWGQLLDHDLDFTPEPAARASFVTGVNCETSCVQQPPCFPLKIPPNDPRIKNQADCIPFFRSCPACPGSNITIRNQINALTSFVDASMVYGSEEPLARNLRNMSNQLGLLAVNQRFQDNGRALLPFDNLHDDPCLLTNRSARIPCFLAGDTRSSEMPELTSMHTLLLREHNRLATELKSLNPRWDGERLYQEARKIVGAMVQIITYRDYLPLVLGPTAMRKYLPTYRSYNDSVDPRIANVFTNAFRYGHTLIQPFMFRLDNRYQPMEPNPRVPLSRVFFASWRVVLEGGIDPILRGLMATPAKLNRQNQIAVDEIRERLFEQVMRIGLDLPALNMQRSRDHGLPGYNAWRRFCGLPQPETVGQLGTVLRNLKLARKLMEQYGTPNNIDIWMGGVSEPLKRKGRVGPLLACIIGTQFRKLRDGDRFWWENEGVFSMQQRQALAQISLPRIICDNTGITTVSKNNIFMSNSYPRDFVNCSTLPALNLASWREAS
Sequence of UniProt P00519 (whole entry, unmodified, looked up): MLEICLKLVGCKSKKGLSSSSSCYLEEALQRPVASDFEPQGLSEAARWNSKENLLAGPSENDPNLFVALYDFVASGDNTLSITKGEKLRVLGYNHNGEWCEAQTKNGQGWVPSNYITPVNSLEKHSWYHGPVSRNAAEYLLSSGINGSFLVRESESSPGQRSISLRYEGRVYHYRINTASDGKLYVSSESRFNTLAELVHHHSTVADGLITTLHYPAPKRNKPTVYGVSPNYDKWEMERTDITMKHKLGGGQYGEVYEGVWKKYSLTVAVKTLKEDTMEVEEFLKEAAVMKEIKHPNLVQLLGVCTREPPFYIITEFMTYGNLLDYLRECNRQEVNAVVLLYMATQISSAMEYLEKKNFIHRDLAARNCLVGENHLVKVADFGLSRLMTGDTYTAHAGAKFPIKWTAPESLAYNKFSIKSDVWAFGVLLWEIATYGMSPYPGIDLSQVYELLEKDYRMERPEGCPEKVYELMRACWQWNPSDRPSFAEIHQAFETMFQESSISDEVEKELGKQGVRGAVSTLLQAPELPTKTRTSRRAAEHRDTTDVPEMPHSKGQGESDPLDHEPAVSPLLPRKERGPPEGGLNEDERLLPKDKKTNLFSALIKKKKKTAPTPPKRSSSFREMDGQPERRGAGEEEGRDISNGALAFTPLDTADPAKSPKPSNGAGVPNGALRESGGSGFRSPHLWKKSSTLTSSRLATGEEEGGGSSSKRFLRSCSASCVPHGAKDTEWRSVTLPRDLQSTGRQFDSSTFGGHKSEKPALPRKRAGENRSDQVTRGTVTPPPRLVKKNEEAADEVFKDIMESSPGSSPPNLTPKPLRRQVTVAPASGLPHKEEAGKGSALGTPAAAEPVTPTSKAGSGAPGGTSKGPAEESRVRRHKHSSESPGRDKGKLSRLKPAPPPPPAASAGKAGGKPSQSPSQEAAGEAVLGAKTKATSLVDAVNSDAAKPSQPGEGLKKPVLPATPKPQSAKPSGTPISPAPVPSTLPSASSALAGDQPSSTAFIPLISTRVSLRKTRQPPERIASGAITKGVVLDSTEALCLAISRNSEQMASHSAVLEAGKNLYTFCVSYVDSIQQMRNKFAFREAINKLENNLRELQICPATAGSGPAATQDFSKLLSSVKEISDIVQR
Sequence of UniProt Q01105 (whole entry, unmodified, looked up): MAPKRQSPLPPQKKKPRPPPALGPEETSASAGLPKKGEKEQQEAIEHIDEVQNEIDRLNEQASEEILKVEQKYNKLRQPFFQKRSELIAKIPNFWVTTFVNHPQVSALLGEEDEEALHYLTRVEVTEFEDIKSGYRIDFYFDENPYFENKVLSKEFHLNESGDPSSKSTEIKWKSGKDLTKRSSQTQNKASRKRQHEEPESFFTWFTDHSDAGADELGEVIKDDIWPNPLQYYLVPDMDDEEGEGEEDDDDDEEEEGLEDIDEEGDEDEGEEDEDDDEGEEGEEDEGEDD
Sequence of UniProt Q16774 (whole entry, unmodified, looked up): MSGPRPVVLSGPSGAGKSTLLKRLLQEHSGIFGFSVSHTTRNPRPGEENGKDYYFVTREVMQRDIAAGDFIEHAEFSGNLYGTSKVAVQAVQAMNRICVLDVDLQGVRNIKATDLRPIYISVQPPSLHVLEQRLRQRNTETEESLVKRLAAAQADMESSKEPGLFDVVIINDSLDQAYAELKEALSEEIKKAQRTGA
Sequence of UniProt P11388 (whole entry, looked up): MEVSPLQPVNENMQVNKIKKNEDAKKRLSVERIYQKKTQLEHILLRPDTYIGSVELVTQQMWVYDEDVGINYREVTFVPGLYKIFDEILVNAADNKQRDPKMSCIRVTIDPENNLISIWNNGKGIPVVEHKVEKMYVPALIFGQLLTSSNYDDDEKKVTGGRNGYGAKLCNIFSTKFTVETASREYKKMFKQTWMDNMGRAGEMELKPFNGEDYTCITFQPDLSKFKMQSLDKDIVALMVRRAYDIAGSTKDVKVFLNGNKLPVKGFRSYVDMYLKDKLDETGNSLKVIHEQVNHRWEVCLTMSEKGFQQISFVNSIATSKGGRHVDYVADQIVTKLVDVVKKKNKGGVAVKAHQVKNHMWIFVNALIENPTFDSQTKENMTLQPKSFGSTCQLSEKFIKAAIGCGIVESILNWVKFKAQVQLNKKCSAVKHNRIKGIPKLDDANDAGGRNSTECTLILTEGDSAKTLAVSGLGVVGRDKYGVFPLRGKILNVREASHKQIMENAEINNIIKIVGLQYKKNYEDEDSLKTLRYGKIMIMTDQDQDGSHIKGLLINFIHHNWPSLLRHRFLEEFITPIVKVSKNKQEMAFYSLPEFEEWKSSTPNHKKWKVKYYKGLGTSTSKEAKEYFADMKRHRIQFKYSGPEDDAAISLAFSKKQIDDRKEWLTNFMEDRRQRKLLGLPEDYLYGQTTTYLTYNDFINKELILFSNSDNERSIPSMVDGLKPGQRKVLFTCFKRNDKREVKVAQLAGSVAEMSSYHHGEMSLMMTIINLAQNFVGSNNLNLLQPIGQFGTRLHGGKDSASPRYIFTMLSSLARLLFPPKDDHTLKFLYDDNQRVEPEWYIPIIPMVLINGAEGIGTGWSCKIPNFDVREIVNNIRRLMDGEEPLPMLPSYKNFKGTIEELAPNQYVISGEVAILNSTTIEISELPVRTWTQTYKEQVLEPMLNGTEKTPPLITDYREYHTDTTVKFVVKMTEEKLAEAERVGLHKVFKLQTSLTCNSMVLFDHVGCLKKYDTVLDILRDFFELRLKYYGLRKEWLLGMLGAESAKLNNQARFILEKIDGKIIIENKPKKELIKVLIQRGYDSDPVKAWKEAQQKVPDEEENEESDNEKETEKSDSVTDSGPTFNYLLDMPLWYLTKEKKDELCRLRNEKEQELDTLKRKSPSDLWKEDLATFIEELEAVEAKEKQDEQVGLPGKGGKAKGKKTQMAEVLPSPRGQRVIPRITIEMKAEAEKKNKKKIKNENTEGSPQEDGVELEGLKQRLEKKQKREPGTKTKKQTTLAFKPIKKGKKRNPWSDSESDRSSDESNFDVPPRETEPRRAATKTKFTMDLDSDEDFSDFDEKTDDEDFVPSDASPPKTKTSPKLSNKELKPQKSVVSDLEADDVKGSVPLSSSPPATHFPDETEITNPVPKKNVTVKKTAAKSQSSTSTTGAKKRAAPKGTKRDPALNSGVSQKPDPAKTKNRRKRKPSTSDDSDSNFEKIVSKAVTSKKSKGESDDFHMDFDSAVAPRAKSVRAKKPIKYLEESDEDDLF
Sequence of UniProt Q8IV63 (whole entry, looked up): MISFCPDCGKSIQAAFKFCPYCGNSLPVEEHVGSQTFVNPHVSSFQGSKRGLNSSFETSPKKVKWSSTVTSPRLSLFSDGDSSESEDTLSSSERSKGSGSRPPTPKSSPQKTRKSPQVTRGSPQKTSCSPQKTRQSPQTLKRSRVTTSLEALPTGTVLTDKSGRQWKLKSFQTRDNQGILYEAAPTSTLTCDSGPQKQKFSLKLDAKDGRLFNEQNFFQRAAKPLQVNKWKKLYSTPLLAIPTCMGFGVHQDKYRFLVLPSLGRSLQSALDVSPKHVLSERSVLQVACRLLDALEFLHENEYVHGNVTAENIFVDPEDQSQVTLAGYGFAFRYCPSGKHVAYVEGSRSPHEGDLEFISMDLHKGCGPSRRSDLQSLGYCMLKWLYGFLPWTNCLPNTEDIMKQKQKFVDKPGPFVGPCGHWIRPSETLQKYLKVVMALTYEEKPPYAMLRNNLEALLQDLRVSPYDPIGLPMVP
Sequence of UniProt P28062 (whole entry, looked up): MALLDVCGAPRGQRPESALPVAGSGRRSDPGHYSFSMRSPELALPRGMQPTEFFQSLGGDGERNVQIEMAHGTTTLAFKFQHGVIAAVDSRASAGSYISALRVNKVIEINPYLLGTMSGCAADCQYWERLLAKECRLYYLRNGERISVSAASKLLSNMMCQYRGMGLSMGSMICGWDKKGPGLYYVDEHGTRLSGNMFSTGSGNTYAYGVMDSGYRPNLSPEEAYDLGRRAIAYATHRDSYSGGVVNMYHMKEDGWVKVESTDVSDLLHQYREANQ

Compound | target | test | test system | conditions | how to read | endpoint | value
Cc1cc(NS(=O)(=O)c2ccc(N)cc2)no1 | Dihydropteroate synthase (folP, Bacteria, UniProt P0AC13) | CETSA HiBiT | whole cells | – | – | melting temperature | 51.2 °C
c1ccc2ncccc2c1 | Or8a1 (Mus musculus, UniProt Q60893) | odorant-evoked current, agonist | isolated olfactory neurons | – | baseline: acetophenone saturated response | Emax | 100 ± 3%
N[C@@H]1CCN(c2nccc(-c3cnn4ncccc34)n2)C1 | Tyrosine-protein kinase ABL1 (ABL1, Homo sapiens, UniProt P00519, Q252H) | KINOMEscan | – | 1 µM | – | remaining binding | 91%
O=C(O)C1=CCNCC1 | GABA-A receptor; alpha-1/beta-2/gamma-2 (Rattus norvegicus, UniProt P18508+P62813+P63138) | chloride current, agonist, whole-cell patch clamp | HEK293 expressing GABAA | 30 s | baseline: maximum | maximal response | 110%
C=CC(=O)N1CCC(COCC(=O)N2CCN(c3nc(-c4cnc(N)nc4C(F)F)nc(N4CCOC[C@@H]4C)n3)CC2)CC1 | 5'-AMP-activated protein kinase catalytic subunit alpha-2 (PRKAA2, Homo sapiens, UniProt P54646) | KINOMEscan | – | 1 µM | – | remaining binding | 100%
Oc1ccccc1-c1n[nH]cc1-c1ccnc2ccccc12 | pH-response regulator protein palF/RIM8 (RIM8, Candida albicans, UniProt Q9UW13) | kinase binding, MIB/MS competition | Candida albicans lysate | 10 µM | baseline: DMSO, negative = stronger binding | log2 fold change | 0.4
O=C(c1ccc(C(=O)N2CCC(N3CCCC3)CC2)c(Nc2ccccc2)c1)N1CCC(N2CCCC2)CC1 | Lethal(3)malignant brain tumor-like protein 3, MBT domains (Homo sapiens, UniProt Q96JM7) | FRAP | human cells | 0.01 µM | – | diffusion coefficient | 0.146 µm2/s
O=C1C[C@@H](c2ccccc2)Oc2cc(O)cc(O)c21 | Aryl hydrocarbon receptor | reporter gene, agonist, luciferase reporter | ZF-4 | 4.572 µM | baseline: vehicle control | fold change | 0.976
Cn1c2c(c3ccc(Cl)c(Cl)c31)C(C#N)C1(CCCC1)NC2=O (stereo not shown) | Serine/threonine-protein kinase VRK3 (VRK3, Homo sapiens, UniProt Q8IV63) | thermal stability, thermal shift | – | 10 µM | higher = stronger binding | delta Tm | 0 °C
CN(C)c1ncc(F)c(-c2cnn3ncccc23)n1 | Tyrosine-protein kinase ABL1 (ABL1, Homo sapiens, UniProt P00519, F317I) | KINOMEscan | – | 1 µM | baseline: control | remaining binding | 67% and 96%
CC[C@H](C)[C@H](NC(=O)[C@H](CCCNC(=N)N)NC(=O)[C@H](Cc1c[nH]cn1)NC(=O)[C@H](CCCNC(=N)N)NC(=O)[C@H](CC(=O)O)NC(=O)[C@H](CC(=O)O)NC(=O)[C@@H](NC(=O)[C@H](CC(=O)O)NC(=O)[C@@H]1CCCN1C(=O)[C@@H](N)CC(C)C)[C@@H](C)O)C(=O)N[C@@H](CCC(=O)O)C(=O)N[C@@H](CCC(=O)O)C(=O)N[C@@H](CCCCN)C(=O)N[C@@H](CCCNC(=N)N)C(=O)N[C@@H](CCCCN)C(=O)N[C@@H](CCCNC(=N)N)C(=O)N[C@H](C(=O)N[C@@H](C)C(=O)N[C@@H](CCC(=O)O)C(=O)N[C@H](C(=O)N[C@@H](Cc1ccccc1)C(=O)N[C@@H](CCCCN)C(=O)N[C@@H](CO)C(=O)N[C@H](C(=O)N[C@@H](CCSC)C(=O)N[C@@H](CCCCN)C(=O)N[C@@H](CCCCN)C(=O)N[C@@H](CO)C(=O)N1CCC[C@H]1C(=O)N[C@@H](Cc1ccccc1)C(=O)N[C@@H](CC(N)=O)C(=O)NCC(=O)N1CCC[C@H]1C(=O)O)[C@@H](C)CC)[C@@H](C)O)[C@@H](C)O | NF-kappa-B inhibitor alpha | binding, ITC | – | pH 7.5, 293 K, 50 mM NaCl | – | ΔH | -2.3 ± 0.01 kcal/mol
COc1cc(-c2cc(C(C)=O)n3ccccc23)c(OC)cc1Cn1ccnc1 | SWI/SNF-related matrix-associated actin-dependent regulator of chromatin subfamily A member 2, isoform B (SMARCA2, Homo sapiens, UniProt P51531) | – | – | – | – | ΔTm | -0.5 °C
Cc1cccc2c1ccc1cc(C(C)C)ccc12 | Aryl hydrocarbon receptor | reporter gene, agonist, luciferase reporter | ZF-4 | 1.524 µM | baseline: vehicle control | fold change | 0.98
O=C(COP(=O)(O)O)[C@@H](O)[C@H](O)[C@H](O)COP(=O)(O)O | Small ribosomal subunit protein mS35 (Homo sapiens, UniProt P82673) | thermal proteome profiling, item: MRPS35 | HepG2 cell lysate | concentration not given, 57 over 37 °C | baseline: compound over control | thermal stability ratio | 0.389 and 0.591 and 0.5
CC[C@@H]1[C@H](F)C(=O)N[C@@H]1COc1nccc2cc(C(N)=O)c(OC)cc12 | Aurora kinase A (AURKA, Homo sapiens, UniProt O14965) | ATP probe binding, KiNativ profiling, item: Lys1 probe site | THP-1 cell lysate | 0.2 mM | – | inhibition | 20.9%
Nc1nc2c(ncn2[C@@H]2O[C@H](COP(=O)(O)O)[C@@H](O)[C@H]2O)c(=O)[nH]1 | GUK1 (Homo sapiens, UniProt Q16774, R148A) | enzyme activity, NADH-coupled | – | 500 µM | – | reaction rate | 0.275 s⁻¹ and 1.01 s⁻¹ and 0.624 s⁻¹
CCCCCCCCCCCCC/C=C/[C@@H](O)[C@H](CO)NC(=O)CCCCCCCCCCCCCCCCCCCCC | SET Y135C | lipid binding, GFP pull-down LC-MS/MS | A549 overexpressing GFP-tagged protein | – | baseline: eluate plus flow-through | lipid fraction bound | 14.3%

Compound | target | test | test system | conditions | how to read | endpoint | value
O=C(O)c1ccc(Nc2ncc3c(n2)-c2ccc(Cl)cc2C(c2c(F)cccc2F)=NC3)cc1 | Pyk2(h) | kinase activity | – | 1 µM | – | remaining activity | 90%
COC(=O)c1cccc(C(=O)c2c[nH]c3c4c(ccc23)CCC4)n1 | Aryl hydrocarbon receptor (AHR, Homo sapiens, UniProt P35869) | reporter gene, agonist, XRE luciferase | HepG2 | – | baseline: ITE | Emax | 55 ± 3%
CCCCC[C@H](O)/C=C/[C@H]1[C@H](O)CC(=O)[C@@H]1C/C=C\CCCC(=O)O | Prostaglandin E2 receptor EP1 subtype (PTGER1, Homo sapiens, UniProt P34995, L215A) | IP1 accumulation, agonist | AD293 | 1 h, EP1 L215A mutant | – | Emax | 62.6 ± 12%
Cc1cc2ccccc2c2ccc3ccccc3c12 | Aryl hydrocarbon receptor | reporter gene, agonist, luciferase reporter | ZF-4 | 4.572 µM | baseline: vehicle control | fold change | 1.75
COc1ccc(F)cc1C(=O)NCc1ccc(-c2nn([C@@H](C)C(F)(F)F)c(N)c2C(N)=O)cc1 | Mitogen-activated protein kinase kinase kinase kinase 1 (MAP4K1, Homo sapiens, UniProt Q92918) | kinase activity, inhibitor, HotSpot radiometric | – | 1000 nM, together with: ATP at Km | – | remaining activity | 103 ± 1.4%
NC[C@H](O)c1ccc(O)c(O)c1 | Alpha-2B adrenergic receptor (ADRA2B, Homo sapiens, UniProt P18089) | AP-TGFα shedding | HEK293A | – | – | EC80 | 12.9 nM
CCCCCCCCCCCCC/C=C/[C@@H](O)[C@H](CO)NC(=O)CCCCCCCCCCCCCCCCCCCCCCCCC | SET Y135C | lipid binding, GFP pull-down LC-MS/MS | A549 overexpressing GFP-tagged protein | unit not given | baseline: vector-transfected cells | bound endogenous lipid | 6.3
NC/C(=C\F)COc1cccc(Cn2c(=S)[nH]c(=O)c3[nH]cnc32)c1 | Myeloperoxidase (MPO, Homo sapiens, UniProt P05164) | inhibitor, cholesteryl ester hydroperoxide | – | 0.1667 µM | baseline: control | LDL lipid peroxidation | 12.4% and 14.6% and 4.83% and 6.12%
O=S(=O)(O)C1CCNCC1 | Sodium- and chloride-dependent taurine transporter (SLC6A6, Homo sapiens, UniProt P31641, Y138A) | binding, microscale thermophoresis | – | 488 nM, room temperature, together with: 50 nM labelled protein | higher = more binding | normalised MST signal | 0.00653
CC[C@H](C)[C@H](NC(=O)[C@H](CCCNC(=N)N)NC(=O)[C@H](Cc1c[nH]cn1)NC(=O)[C@H](CCCNC(=N)N)NC(=O)[C@H](CC(=O)O)NC(=O)[C@H](CC(=O)O)NC(=O)[C@@H](NC(=O)[C@H](CC(=O)O)NC(=O)[C@@H]1CCCN1C(=O)[C@@H](N)CC(C)C)[C@@H](C)O)C(=O)N[C@@H](CCC(=O)O)C(=O)N[C@@H](CCC(=O)O)C(=O)N[C@@H](CCCCN)C(=O)N[C@@H](CCCNC(=N)N)C(=O)N[C@@H](CCCCN)C(=O)N[C@@H](CCCNC(=N)N)C(=O)N[C@H](C(=O)N[C@@H](Cc1ccc(O)cc1)C(=O)N[C@@H](CCC(=O)O)C(=O)N[C@H](C(=O)N[C@@H](Cc1ccccc1)C(=O)N[C@@H](CCCCN)C(=O)N[C@@H](CO)C(=O)N[C@H](C(=O)N[C@@H](CCSC)C(=O)N[C@@H](CCCCN)C(=O)N[C@@H](CCCCN)C(=O)N[C@@H](CO)C(=O)N1CCC[C@H]1C(=O)N[C@@H](C)C(=O)N[C@@H](CC(N)=O)C(=O)NCC(=O)N1CCC[C@H]1C(=O)O)[C@@H](C)CC)[C@@H](C)O)[C@@H](C)O | NF-kappa-B inhibitor alpha | binding, ITC | – | pH 7.5, 293 K, 50 mM NaCl | – | -TΔS | -5 ± 0.2 kcal/mol
COc1cc(Nc2ncc3c(n2)-c2ccc(Cl)cc2C(c2c(F)cccc2OC)=NC3)ccc1C(=O)O | ABL1 | kinase activity | – | 1 µM | – | remaining activity | 32%
CC(C)C[C@H](NC(=O)[C@H](Cc1ccccc1)NC(=O)c1cnccn1)B(O)O | Proteasome component C5/PSMB8 (Homo sapiens, UniProt P20618+P28062) | inhibitor, jump dilution | – | 1 h | – | reversibility | 20 ± 4.7%
O=C(COc1ccc(C2CCC(=O)NC2=O)cc1)NCCCCCCN1CCc2c(c3ccccc3n2Cc2ccc(C(=O)NO)cc2)C1 (stereo not shown) | Protein deacetylase HDAC6 (HDAC6, Homo sapiens, UniProt Q9UBN7) | protein degradation, degrader, western blot | MM1.S cells | 24 h | baseline: HDAC10 over HDAC6 | DC50 ratio | 1.3 fold
O=C(C#Cc1ccc(F)c(F)c1)c1ccccc1Cl | mvfR (Pseudomonas aeruginosa, UniProt Q9I4X0) | receptor binding | – | concentration not given, 1.5 h, together with: PQS at 1:1 ratio | baseline: control | binding | 90%
O=c1nc(SCc2cc(F)cc(C(F)(F)F)c2)nc(SCc2ccc3sccc3c2)[nH]1 | DNA topoisomerase 2-alpha (TOP2A, Homo sapiens, UniProt P11388) | ATPase activity | – | 1.95 µM, together with: ATP 2 mM | – | ATP hydrolysis rate | 2.3 µM/min
CCCCCCCCCCCCC/C=C/[C@@H](O)[C@H](CO)NC(=O)CCCCCCCCCCCCCCCCCCC | Protein SET (SET, Homo sapiens, UniProt Q01105) | lipid binding, GFP pull-down LC-MS/MS | A549 overexpressing GFP-tagged protein | ER-targeted construct, unit not given | baseline: vector-transfected cells | bound endogenous lipid | 4.5
NC(=O)c1ccc[n+]([C@@H]2O[C@H](COP(=O)(O)OP(=O)(O)OC[C@H]3O[C@@H](n4cnc5c(N)ncnc54)[C@H](O)[C@@H]3O)[C@@H](O)[C@H]2O)c1 | Aldehyde dehydrogenase, dimeric NADP-preferring (ALDH3A1, Homo sapiens, UniProt P30838) | substrate | – | – | – | Km | 140 ± 10 µM

Excerpt of the above:
Compound | target | test | test system | conditions | how to read | endpoint | value
CC[C@H](C)[C@H](NC(=O)[C@H](CCCNC(=N)N)NC(=O)[C@H](Cc1c[nH]cn1)NC(=O)[C@H](CCCNC(=N)N)NC(=O)[C@H](CC(=O)O)NC(=O)[C@H](CC(=O)O)NC(=O)[C@@H](NC(=O)[C@H](CC(=O)O)NC(=O)[C@@H]1CCCN1C(=O)[C@@H](N)CC(C)C)[C@@H](C)O)C(=O)N[C@@H](CCC(=O)O)C(=O)N[C@@H](CCC(=O)O)C(=O)N[C@@H](CCCCN)C(=O)N[C@@H](CCCNC(=N)N)C(=O)N[C@@H](CCCCN)C(=O)N[C@@H](CCCNC(=N)N)C(=O)N[C@H](C(=O)N[C@@H](C)C(=O)N[C@@H](CCC(=O)O)C(=O)N[C@H](C(=O)N[C@@H](Cc1ccccc1)C(=O)N[C@@H](CCCCN)C(=O)N[C@@H](CO)C(=O)N[C@H](C(=O)N[C@@H](CCSC)C(=O)N[C@@H](CCCCN)C(=O)N[C@@H](CCCCN)C(=O)N[C@@H](CO)C(=O)N1CCC[C@H]1C(=O)N[C@@H](Cc1ccccc1)C(=O)N[C@@H](CC(N)=O)C(=O)NCC(=O)N1CCC[C@H]1C(=O)O)[C@@H](C)CC)[C@@H](C)O)[C@@H](C)O | NF-kappa-B inhibitor alpha | binding, ITC | – | pH 7.5, 293 K, 50 mM NaCl | – | ΔH | -2.3 ± 0.01 kcal/mol
COc1cc(-c2cc(C(C)=O)n3ccccc23)c(OC)cc1Cn1ccnc1 | SWI/SNF-related matrix-associated actin-dependent regulator of chromatin subfamily A member 2, isoform B (SMARCA2, Homo sapiens, UniProt P51531) | – | – | – | – | ΔTm | -0.5 °C
Cc1cccc2c1ccc1cc(C(C)C)ccc12 | Aryl hydrocarbon receptor | reporter gene, agonist, luciferase reporter | ZF-4 | 1.524 µM | baseline: vehicle control | fold change | 0.98
O=C(COP(=O)(O)O)[C@@H](O)[C@H](O)[C@H](O)COP(=O)(O)O | Small ribosomal subunit protein mS35 (Homo sapiens, UniProt P82673) | thermal proteome profiling, item: MRPS35 | HepG2 cell lysate | concentration not given, 57 over 37 °C | baseline: compound over control | thermal stability ratio | 0.389 and 0.591 and 0.5
CC[C@@H]1[C@H](F)C(=O)N[C@@H]1COc1nccc2cc(C(N)=O)c(OC)cc12 | Aurora kinase A (AURKA, Homo sapiens, UniProt O14965) | ATP probe binding, KiNativ profiling, item: Lys1 probe site | THP-1 cell lysate | 0.2 mM | – | inhibition | 20.9%
